Experimental data of several laboratories.
A part holds a random share of what one study measured. Substitutions count along the parent as printed.

Series 1 — method: DHFR PCA, deep sequencing; matrix: yeast; together with: (+)-ABA 17 µM; baseline: wild-type fitted maximum; reading: higher = stronger binding
Target: ABI1, truncated, D143A, DHFR fusion (Arabidopsis thaliana)
Notes: methotrexate growth selection, single substitutions
Starting sequence: PYL1, truncated, DHFR fusion (Arabidopsis thaliana); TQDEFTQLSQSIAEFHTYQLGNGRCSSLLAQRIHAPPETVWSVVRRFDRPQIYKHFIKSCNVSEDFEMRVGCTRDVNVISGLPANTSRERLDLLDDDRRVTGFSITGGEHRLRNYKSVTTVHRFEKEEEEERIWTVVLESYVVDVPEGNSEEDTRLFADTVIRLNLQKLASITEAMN
`D3T` — result for “relative binding score”: 82.8%.
`G21M`: “relative binding score” 80.2%.
Under “relative binding score”, `E139K` is recorded as 16%.
`V44M` — result for “relative binding score”: 31.8%.
Under “relative binding score”, `T73E` is recorded as 90%.
For `S11W`, “relative binding score” read 79.5%.
For `G148M`, “relative binding score” read 45%.
Under “relative binding score”, `V100Q` is recorded as 5.7%.
`Q19R`: “relative binding score” 85.5%.
Under “relative binding score”, `E38W` is recorded as 50%.
Under “relative binding score”, `T135C` is recorded as 88.1%.
For `L82R`, “relative binding score” read -0.627%.
`T154W` — result for “relative binding score”: -8.53%.
For `L156R`, “relative binding score” read 49.7%.
`S27F`: “relative binding score” 0.72%.
`I162T`: “relative binding score” 8.41%.
For `N85E`, “relative binding score” read 84.8%.
`L156A` — result for “relative binding score”: 83%.
For `Y141T`, “relative binding score” read -5.66%.
`F124Y`: “relative binding score” 98.3%.
For `N85T`, “relative binding score” read 92.6%.
`E131F`: “relative binding score” 72.9%.

Series 2 — method: RNA Bind-n-Seq; molecule type: RNA; matrix: in vitro; tested at: not given; notes: RNA with constant flanks, ends assumed; baseline: input RNA pool; reading: higher = stronger binding
Target: RING finger protein unkempt homolog, zinc fingers 1-6, GST-SBP tag (UNK, Homo sapiens, UniProt Q9C0B0, residues 30-357)
UniProt Q9C0B0, sequence (30-357, looked up): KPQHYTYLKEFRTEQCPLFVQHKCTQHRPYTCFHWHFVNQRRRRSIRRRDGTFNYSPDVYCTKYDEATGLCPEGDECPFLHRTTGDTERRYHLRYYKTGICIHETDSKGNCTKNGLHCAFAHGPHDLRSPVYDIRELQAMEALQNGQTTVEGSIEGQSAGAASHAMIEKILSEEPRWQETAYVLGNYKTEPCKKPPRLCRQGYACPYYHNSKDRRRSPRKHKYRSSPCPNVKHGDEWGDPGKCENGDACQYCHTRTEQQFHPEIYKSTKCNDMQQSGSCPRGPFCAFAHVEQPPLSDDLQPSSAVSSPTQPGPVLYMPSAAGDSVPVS
With `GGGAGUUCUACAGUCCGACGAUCUCAUCUACAUUUGCAAUUCCCCAAGAGCUAGAGAAAAGUGUACAGAUGUUUGAAUUGUUUUACCGCCAGCAUUUCAGUGGACGGAAGCUGACAUGGUUGCAUUAUCUCUGUACAGGUGAACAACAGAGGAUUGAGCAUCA` the bound/input enrichment was 0.547 ratio.
With `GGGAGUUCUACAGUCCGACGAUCAGCACAUGAUUUGGGAAUUACACUUUGUGACAUGGAUGAAUCUGCACUGACCCUUGGUACAACCGAUGUUUCUUAUCUGCCACAUUCAUCAGAAUACAGUGUUGGUCGAUGUAAGCACACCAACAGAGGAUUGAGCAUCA` the bound/input enrichment was 0.115 ratio.
`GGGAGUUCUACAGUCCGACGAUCGGCUUUGAGCUUCCUCAGGGGCCUCUGGGAACAUCCUUCAAAGGAAAAUAUGGGUGUGCCGACUACUGGGUGAAGGCUUUUCUUGACCGCCCGAGCCAGCCAACUCAAGAGACAAAGAAACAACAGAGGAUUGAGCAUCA` has a bound/input enrichment of 0.272 ratio.
`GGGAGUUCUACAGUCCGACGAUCCAACAGGCUGGCCAUGAUGAAGGGGUUCUGGAUCGUUUGGUAGAUAGGAGGGAACGGCCAUCCGAAGGUGGCCGAACAAAUUCCAAUAACAACAACAGCAAUCCAUGUUCAGAACAAGAUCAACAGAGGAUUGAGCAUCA` gave a bound/input enrichment of 0.147 ratio.
`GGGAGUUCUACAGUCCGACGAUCGGUCUCUCCAAACUGACUAUAUAUUUAUUUGUUAUUUUAAAAAUACAACUAUAUUUUGGGCCGUUUUUUUUUUUUUUUUUUUGAUAAGUUGGUGUAAGGCUAUGUGACUUGAUCAAAACACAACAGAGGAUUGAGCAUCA` gave a bound/input enrichment of 2.64 ratio.
With `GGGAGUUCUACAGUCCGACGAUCUCUGGCCAUGGCCCCUCUGCCAAGCCUGUGUGCGAUGCCCUUGGUGCUUUAGUGCAAGAAGCCCCGGCUCAGAAGCACAGCAGCGCCAUCUUUCCGUUUCAGGGGUUGUGAUGAAGGCCACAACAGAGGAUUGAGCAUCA` the bound/input enrichment was 0.156 ratio.
`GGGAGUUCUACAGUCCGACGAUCAUUGAAAUAAAAGUAUUAUCAGAACUUGGUAGAGAAGCUCAGAAUCUUUCAGCUAUGGAAAUCCGAAAGAAAGCUAGAUCAUUUGCUAAAGCAGCCAUUGAGAAACAGAAAUCAGCAUUUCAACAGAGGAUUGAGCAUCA` gave a bound/input enrichment of 0.192 ratio.
`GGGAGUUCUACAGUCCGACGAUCGGAGACUCAACAGCAAGAAUAUGGAAUCUUAGUGAGAACAGCACCAGUGGCUCUACACAGUCCGUACUUAGACAUUGUAUACGAGAAGGAGGGCAAGAUGUUCCAAGCAACAAGGAUGUCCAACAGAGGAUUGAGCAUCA` gave a bound/input enrichment of 0.346 ratio.
For `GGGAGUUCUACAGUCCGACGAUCGAAGAUGGAGAAGAUCAACCAAAGCAAGUUUAUGUAGACAAAUUGGCUGAAUUAAAAAGUUCCGGUCAACCCAUUAAGACACGGUUCCAGGAAUCUGAAGAAAGACCAAAAUUAUUUGAACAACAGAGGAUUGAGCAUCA`, the bound/input enrichment was 0.382 ratio.
`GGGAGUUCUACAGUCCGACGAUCAUGAAGGAGGCGUUUGGCUUUAUCGAAAGAGGUGAUGUUGUAAAAGAGAUAUUCUUUCACUACCGUGAAUUUAAAGGUGACCUAGAAACCCUACAGCCUGGAGAUGACGUGGAAUUCACACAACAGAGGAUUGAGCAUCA` gave a bound/input enrichment of 0.246 ratio.
`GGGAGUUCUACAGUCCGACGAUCGGAGCGGGUCUGGGGCUCAGCCGGCGGCCCGAAGGUGCGGCGCCAUGAAGCUGUACAGCCUCCGUGUCCUUUACAAAGGCGAUCCGAAAGCGGUGCUGCUCAAGGCCGCGUACGACGUGUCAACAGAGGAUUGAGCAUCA` gave a bound/input enrichment of 0.11 ratio.

Series 3 — target: CCNB1, cyclin fold, Cln2 fusion (human); method: yeast growth competition, sequencing; matrix: yeast; notes: weak parent motif; baseline: not given; reading: higher = stronger binding
Starting sequence: RB1 docking peptide (human); PKPLKKLRFDIEG
Under “normalised enrichment score”, `K5R F9L` is recorded as -0.0405.
Under “normalised enrichment score”, `G13N` is recorded as 0.00523.
`K6Q` — result for “normalised enrichment score”: 0.972.
For `L4E`, “normalised enrichment score” read 0.372.
Under “normalised enrichment score”, `D10A` is recorded as 0.271.
`E12Y` — result for “normalised enrichment score”: 0.968.
Under “normalised enrichment score”, `I11S` is recorded as 0.0202.
For `F9M`, “normalised enrichment score” read 1.19.
`D10C`: “normalised enrichment score” 0.15.
`G13C`: “normalised enrichment score” 1.39.
`K2A` — result for “normalised enrichment score”: -0.14.
Under “normalised enrichment score”, `K5V` is recorded as 0.251.
`P3Y`: “normalised enrichment score” 0.219.
`R8T`: “normalised enrichment score” 0.421.
For `E12G`, “normalised enrichment score” read 1.21.
`I11D`: “normalised enrichment score” 0.201.
For `K2V`, “normalised enrichment score” read 0.804.
`K6G`: “normalised enrichment score” 0.518.
`L7V`: “normalised enrichment score” 0.0678.

Series 4 — method: competition protein-binding microarray; molecule type: double-stranded DNA, one strand shown; matrix: in vitro; tested at: 2 µM; together with: Pho4 competitor, 0.05 µM; reading: higher = stronger binding
Target: Centromere-binding protein 1, full length, His-tagged (CBF1, Saccharomyces cerevisiae, UniProt P17106, residues 1-351)
UniProt P17106, sequence (whole entry, looked up): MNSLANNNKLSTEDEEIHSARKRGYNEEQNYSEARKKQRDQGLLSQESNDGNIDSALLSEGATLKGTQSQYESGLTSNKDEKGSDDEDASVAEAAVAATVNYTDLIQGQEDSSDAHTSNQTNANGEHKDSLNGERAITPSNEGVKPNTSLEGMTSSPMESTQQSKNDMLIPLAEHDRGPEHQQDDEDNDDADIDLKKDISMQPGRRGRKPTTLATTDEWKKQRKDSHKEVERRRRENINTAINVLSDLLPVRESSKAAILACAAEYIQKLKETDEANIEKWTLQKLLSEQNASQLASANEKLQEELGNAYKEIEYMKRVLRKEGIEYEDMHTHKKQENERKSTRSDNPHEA
Notes: whole 60-bp probe, lowest competitor level
With `TTTCCTGTTGTGGGTCATATGACTTTGAACCAAATGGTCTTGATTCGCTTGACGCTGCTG` the fluorescence intensity was 1050 a.u.
`CGAATAACTTTCAAACGCGTGCGATGTTTGTTACCAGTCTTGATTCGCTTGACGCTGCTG` gave a fluorescence intensity of 93.1 a.u.
`CGCCTACAACTTTGGCGCGTGAGCCAAGTGTCTTCTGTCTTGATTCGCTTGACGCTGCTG` gave a fluorescence intensity of 87.7 a.u.
`GTCTTGTCTCATTGTATAGTGGGTGTCCCCACTTCAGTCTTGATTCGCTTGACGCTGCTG` has a fluorescence intensity of 82.2 a.u.
`CAAGTCAAGTTTCAACACGTAGTCTTGAACAGTGGGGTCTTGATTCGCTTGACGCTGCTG` gave a fluorescence intensity of 68.2 a.u.
`CTTCCTCTTCGAACACACGTGCTTTACCCTTGAAGTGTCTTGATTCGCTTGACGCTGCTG` gave a fluorescence intensity of 1830 a.u.
The fluorescence intensity of `CCTTTAGCACATAACCATGTGATTTATCCTCGCTTAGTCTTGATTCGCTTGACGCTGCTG` is reported as 809 a.u.
`AAAGCGGTAATTTGCTCAGTGGGTGCAGATATCTATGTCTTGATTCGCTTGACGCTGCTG` gave a fluorescence intensity of 68.7 a.u.
The fluorescence intensity of `CGGGGTTAAGTTTGTCACGCCACTTGCTTGCAGCAGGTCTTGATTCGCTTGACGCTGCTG` is reported as 192 a.u.
`AAAGCGGTAATTTGTGCAGTGGGTGCAGATATCTATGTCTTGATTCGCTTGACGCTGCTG` has a fluorescence intensity of 87.8 a.u.
With `TTCCGCAATAGCCAACACGTGTGGAGGAACTTCAAGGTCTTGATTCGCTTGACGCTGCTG` the fluorescence intensity was 947 a.u.
For `CCGCGGATGATTTCTCACGTTTATCTGAAGAGGACTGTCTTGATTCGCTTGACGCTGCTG`, the fluorescence intensity was 98.8 a.u.
`GCTTTCGTACTGCTCCAGGTGTGGCTTGATGTCCTAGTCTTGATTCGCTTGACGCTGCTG` gave a fluorescence intensity of 61.4 a.u.
`CGGGGTTAAGTTTGACGTGTGGGTGGCTTGCAGCAGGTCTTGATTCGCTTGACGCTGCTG` has a fluorescence intensity of 67.6 a.u.
For `TGGTTGAGTTTTACCCACGATACCGATATTCTGAACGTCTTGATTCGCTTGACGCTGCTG`, the fluorescence intensity was 87.4 a.u.
`CATTGAAAAGCAAGTGACGTGACTCGAACTTGAAAGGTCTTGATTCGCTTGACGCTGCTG` gave a fluorescence intensity of 201 a.u.
`TGAGTACTATGTTATCAGGTGCTGCTGTTATGGATGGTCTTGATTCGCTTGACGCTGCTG` gave a fluorescence intensity of 181 a.u.
For `CTGAGTCCGACATCGCTCGTGTAGTTATTTGTAAAAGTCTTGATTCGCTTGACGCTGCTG`, the fluorescence intensity was 78.1 a.u.
The fluorescence intensity of `CAGCTCGCCATCCTCCACGTTTTGGTAAGCTGCCGGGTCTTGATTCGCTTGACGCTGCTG` is reported as 71.4 a.u.
`CTAACGAAGGTTTGAGTGGTGGGTGACAAGCCAAGTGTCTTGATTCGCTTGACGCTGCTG` gave a fluorescence intensity of 74.8 a.u.
For `TGCGCAACAACTTGTCACGCGACTTTATGTCTAGAAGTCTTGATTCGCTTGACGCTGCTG`, the fluorescence intensity was 942 a.u.
`AAAGCGGTAATTTTTCACGTGGGTTCACATATCTATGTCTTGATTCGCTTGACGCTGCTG` has a fluorescence intensity of 1030 a.u.
The fluorescence intensity of `TTTGTTGCAACTATCCGCGTGGCCGATTGAGAGTCCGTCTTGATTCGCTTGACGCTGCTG` is reported as 91.5 a.u.
For `CACGACTTGGCTACTCATTCTTTGTGAAACCTTAGAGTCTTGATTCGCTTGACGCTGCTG`, the fluorescence intensity was 63.9 a.u.
For `TAAGTTGTCAGGTTTCACGTGGCAACTACAAGAAAAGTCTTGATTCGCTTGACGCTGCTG`, the fluorescence intensity was 787 a.u.

Some of these lines once more (series 4):
`TGAGTACTATGTTATCAGGTGCTGCTGTTATGGATGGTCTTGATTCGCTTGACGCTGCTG` gave a fluorescence intensity of 181 a.u.
With `TTTCCTGTTGTGGGTCATATGACTTTGAACCAAATGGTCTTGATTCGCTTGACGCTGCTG` the fluorescence intensity was 1050 a.u.
For `CCGCGGATGATTTCTCACGTTTATCTGAAGAGGACTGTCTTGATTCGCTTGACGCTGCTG`, the fluorescence intensity was 98.8 a.u.
`AAAGCGGTAATTTGTGCAGTGGGTGCAGATATCTATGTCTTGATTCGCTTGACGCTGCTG` has a fluorescence intensity of 87.8 a.u.
For `CTGAGTCCGACATCGCTCGTGTAGTTATTTGTAAAAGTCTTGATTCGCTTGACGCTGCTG`, the fluorescence intensity was 78.1 a.u.
`GCTTTCGTACTGCTCCAGGTGTGGCTTGATGTCCTAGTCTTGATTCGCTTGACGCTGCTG` gave a fluorescence intensity of 61.4 a.u.
`AAAGCGGTAATTTGCTCAGTGGGTGCAGATATCTATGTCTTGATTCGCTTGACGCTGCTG` gave a fluorescence intensity of 68.7 a.u.
The fluorescence intensity of `TTTGTTGCAACTATCCGCGTGGCCGATTGAGAGTCCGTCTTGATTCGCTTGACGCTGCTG` is reported as 91.5 a.u.
